Measured values from different studies.
Protocols differ between the studies behind these lines. Numbers after ± are the reported error.
FYN: Tyrosine-protein kinase Fyn (FYN, Homo sapiens, UniProt P06241)
UniProt P06241, sequence (whole entry, looked up): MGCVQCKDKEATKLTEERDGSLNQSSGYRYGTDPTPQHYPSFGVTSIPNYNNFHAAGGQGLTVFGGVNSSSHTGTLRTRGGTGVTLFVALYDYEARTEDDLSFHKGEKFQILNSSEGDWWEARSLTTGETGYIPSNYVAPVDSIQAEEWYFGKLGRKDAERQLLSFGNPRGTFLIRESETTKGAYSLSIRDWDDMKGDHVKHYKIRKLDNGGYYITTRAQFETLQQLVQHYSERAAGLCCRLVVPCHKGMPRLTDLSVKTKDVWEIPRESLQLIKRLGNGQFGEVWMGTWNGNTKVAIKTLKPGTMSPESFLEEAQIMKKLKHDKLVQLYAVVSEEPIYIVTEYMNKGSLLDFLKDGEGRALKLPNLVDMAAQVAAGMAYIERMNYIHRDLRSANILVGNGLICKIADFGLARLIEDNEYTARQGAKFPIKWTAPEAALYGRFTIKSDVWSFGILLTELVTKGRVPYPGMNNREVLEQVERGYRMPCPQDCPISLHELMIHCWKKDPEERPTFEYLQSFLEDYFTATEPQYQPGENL
FYN SH3 domain: Tyrosine-protein kinase Fyn, SH3 domain (FYN, Homo sapiens, UniProt P06241)

| Structure (SMILES) | target | test | system | setting | how to read | endpoint | value |
| --- | --- | --- | --- | --- | --- | --- | --- |
| CC#CC(=O)N1CCC[C@H]1c1nc(-c2ccc(C(=O)Nc3ccccn3)cc2)c2c(N)nccn12 | FYN | kinase activity, inhibitor, HotSpot radiometric |  | 100 nM, together with: ATP 10 µM |  | remaining activity | 100 ± 2% |
| CC(=O)N[C@H](C(=O)N[C@@H](CC(N)=O)C(=O)N[C@@H](CCCCN)C(=O)N1CCC[C@H]1C(=O)N[C@@H](CC(C)C)C(=O)N1CCC[C@H]1C(=O)N1CCC[C@H]1C(=O)N[C@@H](CC(C)C)C(=O)N1CCC[C@H]1C(=O)N[C@H](C(=O)N[C@@H](C)C(N)=O)C(C)C)C(C)C | FYN SH3 domain | ligand binding, FTIR spectroscopy, measured: asymmetric stretch band A |  | pH 7.0, FYN complex, together with: 4 mM peptide |  | wavenumber | 2226.7 ± 0.4 cm⁻¹ |
| CNc1ncc2c(/C=C/C(=O)N3CCC(OC)CC3)nn(Cc3cccc(C(F)(F)F)c3)c2n1 | FYN | kinase activity, inhibitor |  | 1 µM | baseline: untreated control | remaining activity | 91% |
| [2H]c1cc(C)c(NC(=O)c2cnc(Nc3cc(N4CCC(O)CC4)nc(C)n3)s2)c(Cl)c1 | FYN |  |  | 0.001 µM |  | inhibition | > 50% |
| CC(=O)N[C@H](C(=O)N[C@@H](CC(N)=O)C(=O)N[C@@H](CCCCN)C(=O)N[C@@H](C)C(=O)N[C@@H](CC(C)C)C(=O)N1CCC[C@H]1C(=O)N[C@@H](C)C(=O)N[C@@H](CC(C)C)C(=O)N1CCC[C@H]1C(=O)N[C@H](C(=O)N[C@@H](C)C(N)=O)C(C)C)C(C)C | FYN SH3 domain | binding, isothermal titration calorimetry | 50 mM sodium phosphate, 100 mM NaCl | pH 7.0, 25 °C |  | -TΔS | 4.37 ± 0.454 kcal/mol |
| COc1ccc(F)cc1C(=O)NCc1ccc(-c2nn([C@@H](C)C(F)(F)F)c(N)c2C(N)=O)cc1 | FYN | kinase activity, inhibitor, HotSpot radiometric |  | 1000 nM, together with: ATP at Km |  | remaining activity | 48.8 ± 1.8% |
| [2H]c1cc(C)c(NC(=O)c2cnc(Nc3cc(N4CCCCC4)nc(C)n3)s2)c(Cl)c1 | FYN |  |  | 0.0001 µM |  | inhibition | > 50% |
| Cc1cc(Nc2cc(N3CCN(C)CC3)nc(Sc3ccc(NC(=O)C4CC4)cc3)n2)[nH]n1 | FYN | kinase activity, KinaseProfiler |  | 0.03 µM, species human | baseline: control | remaining activity | 99% |
| C=CC(=O)N1CCC([C@@H]2CCNc3c(C(N)=O)c(-c4ccc(Oc5ccccc5)cc4)nn32)CC1 | FYN | kinase activity, inhibitor, HotSpot radiometric |  | 100 nM, together with: ATP 10 µM |  | remaining activity | 76.3 ± 3.2% |
